Results gathered from unrelated publications.
Numbered parts are unrelated; each lists some results of a single study. Changes are numbered by the printed parent chain.

Series 1
Target: CCNF, cyclin fold, Cln2 fusion (human)
Technique: yeast growth competition, sequencing
Medium: yeast
Setting: strong parent motif
Reference: not given
Direction: higher = stronger binding
Starting sequence: MICAL3 docking peptide (human); LQLRRQLSFSEDS
Under “normalised enrichment score”, `Q6G` is recorded as 1.93.
`F9P` — result for “normalised enrichment score”: -0.0265.
`R4S`: “normalised enrichment score” 2.71.
`S8G`: “normalised enrichment score” 3.03.
Under “normalised enrichment score”, `D12E` is recorded as 5.43.
For `R4P`, “normalised enrichment score” read 2.88.

Series 2
Target: Hepatocyte nuclear factor 3-beta, forkhead domain (FOXA2, Homo sapiens, UniProt Q9Y261, residues 142-269)
Technique: protein-binding microarray
Molecule type: double-stranded DNA, one strand shown
Medium: in vitro
Tested at: not given
Setting: k-mer, scored over probes, only values ≥0.25
Direction: higher = stronger binding
Target sequence (chain): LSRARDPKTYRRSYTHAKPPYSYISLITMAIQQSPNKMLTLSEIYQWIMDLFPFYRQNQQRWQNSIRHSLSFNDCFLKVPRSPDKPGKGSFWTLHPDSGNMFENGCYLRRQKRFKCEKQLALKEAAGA
The E-score of `ATACAATC` is reported as 0.287.
With `GAAATGAA` the E-score was 0.284.
For `ACACAATA`, the E-score was 0.363.
`ATATGTGG` has an E-score of 0.363.
For `AATACCAC`, the E-score was 0.311.

Series 3
Target: Ras GTPase-activating protein-binding protein 1, RRM domain (G3BP1, Homo sapiens, UniProt Q13283)
Sequence of UniProt Q13283 (whole entry, looked up): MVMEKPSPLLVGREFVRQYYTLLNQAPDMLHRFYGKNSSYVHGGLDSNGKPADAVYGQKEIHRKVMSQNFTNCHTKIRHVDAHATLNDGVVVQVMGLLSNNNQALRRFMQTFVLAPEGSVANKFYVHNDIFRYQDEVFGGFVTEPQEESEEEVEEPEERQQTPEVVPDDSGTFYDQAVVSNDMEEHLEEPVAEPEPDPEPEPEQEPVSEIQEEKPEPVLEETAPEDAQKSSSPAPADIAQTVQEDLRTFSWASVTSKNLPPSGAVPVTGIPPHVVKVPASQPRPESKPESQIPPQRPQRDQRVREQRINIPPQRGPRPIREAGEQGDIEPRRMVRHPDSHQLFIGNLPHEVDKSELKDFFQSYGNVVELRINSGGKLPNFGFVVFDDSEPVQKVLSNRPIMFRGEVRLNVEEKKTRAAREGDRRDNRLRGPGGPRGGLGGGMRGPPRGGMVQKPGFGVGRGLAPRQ
Technique: RNA Bind-n-Seq
Molecule type: RNA
Medium: in vitro
Tested at: 1 µM
Setting: whole 134-nt RNA, ends assumed
With: 150 mM KCl
Reference: input library
Direction: higher = stronger binding
The log2 enrichment of `GGGAGUUCUACAGUCCGACGAUCGCAGGAAGUAAAAACAAAUGGAAAUGCUUCGGAUAGUGGCAGGGGUGGGGGUUGCUAAGGAAAGGGUGGGACGGGAGUGGGUAAAGAGUUUGGAAUUCUCGGGUGUCAAGG` is reported as 0.978.
The log2 enrichment of `GGGAGUUCUACAGUCCGACGAUCGCAGGAAGUAAAAACAAAUGGAAAUGCUUCGGAUAGUGGCAGGGGUGGGGGUUGCUAAGGAAAGGGUGGGAAAGGAGUGGGUAAAGAGUUUGGAAUUCUCGGGUGUCAAGG` is reported as 1.41.
The log2 enrichment of `GGGAGUUCUACAGUCCGACGAUCCUCAAGUCCUGUGCUACACAUCGUAUGUACCGAAUCGGAAAGGUGGAAAAAGGAAAGUAUUAUGUUACGCCGUUCGGAUCUGCACUUCCAUGGAAUUCUCGGGUGUCAAGG` is reported as -0.192.
The log2 enrichment of `GGGAGUUCUACAGUCCGACGAUCCUCAAGUCCUGUGCUACACAUCGUAUGUACCGAAUCGGGGAGGAGGGGAGGGGAAAGUAUUAUGUUACGCCGUUCGGAUCUGCACUUCCAUGGAAUUCUCGGGUGUCAAGG` is reported as 0.223.

Single results of other studies
`PhoQ, residues 284 288 289 292 302 303 SCEHLI` has a fold induction of 5.74 (PhoP, residues 12 14 15 18 19 LHSVW (Escherichia coli, UniProt P23836); Sort-seq, refers to: YFP reporter; E. coli; PhoQ-PhoP variant library, with: 10 µM Mg2+; reference: high Mg2+ state, higher = stronger signaling).

Excerpt of the above (series 2):
The E-score of `ATACAATC` is reported as 0.287.
With `GAAATGAA` the E-score was 0.284.
